Assay results pooled from the literature.
Parts stem from different laboratories: compare values within a part only.

Study 1
Target: RNA binding protein fox-1 homolog 2, RRM domain, GST-SBP tag (RBFOX2, Homo sapiens, UniProt O43251-10, residues 100-194)
Method: RNA Bind-n-Seq
Form: RNA
Medium: in vitro
Concentration: 365 nM
Setting: natural RNA segment, single round, ends assumed
Relative to: no-protein control
Reading: higher = stronger binding
Measurement: RBNS enrichment (R)
All sequences stand within: GGGAGUUCUACAGUCCGACGAUC … UGGAAUUCUCGGGUGCCAA
Residues (chain): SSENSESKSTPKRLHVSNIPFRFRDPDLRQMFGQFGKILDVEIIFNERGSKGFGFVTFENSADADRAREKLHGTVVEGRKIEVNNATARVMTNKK
UCUGCUGAUAGCCAGGAAGGAGGGAGACCAGCCCUGCCCCUCAGGACCUGACCUGGCUCAUGAUGCCAAGAGGAAGACAGAGCUCUAGCCUCGUCUUCUCCUGCCCACAG: 0.327
UCCUCCACCGUGGCGGCCAGCUGCAUGGAGCCCGGCCCUUGGGCACUGGUGAGCGUUGGAACCUUGUCGUCUGGCUCCGAGCCUCUGCUGUGCGCAACAGCCUCUGUCCC: 1.53
CCAAAUUGUAUCAAGCAAAAAAUGUAUGGCUAGACAACACCAGUAAGAAUCCUGCUGCUCUGGGGGAGGCGGAAGGAGAGCUGGAAAGUCUGGAGUAUCGCUCCGUUCCC: 1.13
GAGAAGCUGAGUCUUCUGCAUCAGAUUAUUGCAACAUUUAACCUGAAUUUAAAAGCACACGAAACAAGGUGUCAAUGGGAAUCUCGCGGCCAACGCCCCCAGAUGUAGGG: 2.09
CUGGUGAAGGCCCUGGAGUAGCGGGCCAGCCGCCAAGGUUGACCUCAGCUUCGGAGCCACCUCUGGAUGAACUGCCCCCAGCCCCCGCCCCAUUAAAGACCCGGAAGCCU: 0.315
GGGCAGCAGCAGGAGGAAUACCAGGGCCACGGAGGGGCCAGGAGUCUCACAGUGGAGGGCAGACUCUAACAGAUGCCAGCUGAACGCUCGCUGGCCCUGGAUGUCAUACG: 1.1
UUUCUUGUUGGCCAUUUCUGUAUUGCUGGCAUCUGUGCUAAGCUUUACAGUGGCAAAAAUAAUGACAUGUAGCAAAGAUUUUCAAACAAAAUAUUUUUUCCUUUUGUAAA: 0.405
UUUAACAUGAAUAGAUACCUUGUAAACUUGUAUUGUGGAUGUGUAAAUAAUAUGUACUUUGGGUUUUUAACACCGCAUGUAAAGUCAAAAUAAAAUAUACAAAUCAUUAU: 42.4

Study 2
Target: Histone acetyltransferase KAT6A, winged helix 2, GST fusion (KAT6A, Homo sapiens, UniProt Q92794, residues 85-181)
Method: protein binding microarray
Form: double-stranded DNA, one strand shown
Medium: in vitro
Concentration: not given
Setting: 8-mer, flanks averaged, mean of 2 arrays, mostly near background
Relative to: not given
Reading: higher = stronger binding
Measurement: E-score
Construct (chain): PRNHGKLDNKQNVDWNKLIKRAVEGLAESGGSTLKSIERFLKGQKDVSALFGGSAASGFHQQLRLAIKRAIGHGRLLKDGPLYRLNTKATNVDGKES
CCTAAAGC: -0.0346
TAGTGAGA: -0.024
CAAGGACC: 0.000795
ATGTTCAA: -0.191
GCGCCTGA: 0.0651
TCCCCCCA: -0.168
CCTCTCAC: 0.104
CGTCACCA: -0.00867
ATTCCGCC: 0.0861
AACTCGAG: -0.105
CTCTACTC: 0.0101
TCATTCGA: -0.0623
CTGTCATC: -0.0859
GCTTAGAC: -0.174
ACACACAG: 0.0246
ACTCTACT: -0.0747
ACATTGTA: -0.0799
CGTTCGGC: 0.0686
ATCCTATA: -0.084

Study 3
Target: Fragile X messenger ribonucleoprotein 1, C-terminal low-complexity region (Fmr1, Mus musculus, UniProt P35922)
Method: RNA Bind-n-Seq
Form: RNA
Medium: in vitro
Concentration: 200 nM
Setting: whole 134-nt RNA, ends assumed
Added: 150 mM KCl
Relative to: input library
Reading: higher = stronger binding
Measurement: log2 enrichment
All sequences stand within: GGGAGUUCUACAGUCCGACGAUC … UGGAAUUCUCGGGUGUCAAGG
UGGGAGGUGGAUUUUGUUUAUUUUUUUAGCUCAUUUCCAGGGGUGGGAAUUUUGUUUUAAUAUGUGUCAUGAAUAAAGUUGUUUUUGAAA: 0.105
GUGCUACACAUCGUAUGUACCGAAUCGGGGUUUUUUUGGGGAAAAAAAGGGGAAAAAAAGGGGAAAGUAUUAUGUUACGCCGUUCGGAUC: 0.0858
GUCCUGUGCUACACAUCGUAUGUACCGAAUCGGGGAAAAAGGGAAAAAGGGGAAAAAGGAAAGUAUUAUGUUACGCCGUUCGGAUCUGCA: -0.22
CAAGUCCUGUGCUACACAUCGUAUGUACCGAAUCGGAAAAAAAGGUUUGGAAAGGAAAGUAUUAUGUUACGCCGUUCGGAUCUGCACUUC: -1.28
CACAGACAACACGCACCCACACAGACACAGAGGGAAGGGGUUGGGAUGGGGACAGGGUGCACAGCAGGGCGGGGUGGGACCCCAGCCCCU: 1.17
UCAAGUCCUGUGCUACACAUCGUAUGUACCGAAUCGGUUUUUUUGGAAAGGAGGAAAGUAUUAUGUUACGCCGUUCGGAUCUGCACUUCC: -0.382
UUCGUUUUUUUCCUUAGUCUGAAGUUGCAGCCGGAGUGAAGAAGAGCGGACCGCUGCCCAGUGCUGAGGUAGAGUGUCGGAUCUGUUUUC: -1.61
CCUGUGCUACACAUCGUAUGUACCGAAUCGGUUUUUUUGGGGUUUUUUUGGGUUUUUUUGGAAAGUAUUAUGUUACGCCGUUCGGAUCUG: -0.566
UCCUGUGCUACACAUCGUAUGUACCGAAUCGGGGUUUUUGGGGUUUGGGGUUUUUGGGGAAAGUAUUAUGUUACGCCGUUCGGAUCUGCA: 0.999

Study 4
Target: Interferon regulatory factor 7, full length, phosphomimetic (IRF7, Homo sapiens, UniProt Q92985, residues 1-503, S101K/S471D/S472D/S475D/S476D/S477D/S483D/S484D/S487D)
Method: protein-binding microarray
Form: double-stranded DNA, one strand shown
Medium: in vitro
Concentration: 250 nM
Setting: 60-bp whole probe
Added: salmon DNA 0.4 mg/ml
Relative to: random background probes
Reading: higher = stronger binding
Measurement: log fluorescence
All sequences stand within: GCCTAGCAC … GTCTTGATTCGCTTGACGCTGCTG
Construct (chain): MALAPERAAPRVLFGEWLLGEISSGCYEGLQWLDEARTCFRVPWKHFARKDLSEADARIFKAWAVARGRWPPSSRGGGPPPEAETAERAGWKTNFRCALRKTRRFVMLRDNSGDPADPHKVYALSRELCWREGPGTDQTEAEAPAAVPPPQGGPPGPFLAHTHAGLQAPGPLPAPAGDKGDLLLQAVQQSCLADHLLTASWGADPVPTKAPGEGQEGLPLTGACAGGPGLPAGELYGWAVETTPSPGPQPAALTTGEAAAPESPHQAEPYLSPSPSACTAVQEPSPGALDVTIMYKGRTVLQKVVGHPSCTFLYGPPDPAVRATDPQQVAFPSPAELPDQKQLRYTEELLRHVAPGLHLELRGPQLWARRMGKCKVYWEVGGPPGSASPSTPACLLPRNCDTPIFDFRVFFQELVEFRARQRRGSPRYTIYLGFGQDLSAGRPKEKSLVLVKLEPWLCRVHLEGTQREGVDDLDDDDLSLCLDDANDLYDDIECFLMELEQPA
TTAGGAATGCTACTGCTTTAGTGCTAG: -0.154 z-score
GACGGTATCGGGACTGGGGAGGTGCTA: -0.22 z-score
TTAGGTCTCGGTCTCAGTTAGTGCTAG: 1.3 z-score
GACGATTTCCTTTCCCTGACGTGCTAG: 1.43 z-score
GACAAACTGAGTTTCGAGACGTGCTAG: 4.22 z-score
GTAGATCTCAGACTGGATTAGTGCTAG: -0.269 z-score
GACGATATCGGGACTGGAGGCGTGCTA: -0.329 z-score
GACGGTATCGGGTTTCGCGACGTGCTA: 1.94 z-score
TTAGGTATCGGTCTCCGTTAGTGCTAG: 1.39 z-score
GTCTCTATCAAAAATACAAAAGTGCTA: 1.34 z-score
GACGATATCGGGACTGGAAACGTGCTA: 0.148 z-score
TCAGTTTTGCTAAGTCAAACTGTGCTA: 1.01 z-score
CTTTCTTTATGTACTCTCTCCGTGCTA: 1.58 z-score
GACGATCTAAGTCTCGAGACGTGCTAG: 0.596 z-score
GACGGTTTCGATCTCGGGACGTGCTAG: 9.29 z-score
TTATGTTTCCTTTCCCTTTAGTGCTAG: 2.96 z-score
AACGAACTGGGGTTTCGAGACGTGCTA: 2.37 z-score
GACGAAGTGAGACTGGAGACGTGCTAG: -0.214 z-score
GACGGATTGGGTTTCGGGACGTGCTAG: 1.81 z-score

Repeated from above (study 2):
CCTCTCAC: 0.104
CGTCACCA: -0.00867
ATTCCGCC: 0.0861
AACTCGAG: -0.105
CTCTACTC: 0.0101
TCATTCGA: -0.0623
CTGTCATC: -0.0859
GCTTAGAC: -0.174
ACACACAG: 0.0246
